Measurements pooled from the literature.
Each line is one published result; not all experiments were run side by side. Values joined by “and” are separate records of one study, mostly repeats; a detail may differ. ± marks the error that the study gave.
SET K222D: Protein SET (SET, Homo sapiens, UniProt Q01105, K222D)
Sequence of UniProt Q01105 (whole entry, unmodified, looked up): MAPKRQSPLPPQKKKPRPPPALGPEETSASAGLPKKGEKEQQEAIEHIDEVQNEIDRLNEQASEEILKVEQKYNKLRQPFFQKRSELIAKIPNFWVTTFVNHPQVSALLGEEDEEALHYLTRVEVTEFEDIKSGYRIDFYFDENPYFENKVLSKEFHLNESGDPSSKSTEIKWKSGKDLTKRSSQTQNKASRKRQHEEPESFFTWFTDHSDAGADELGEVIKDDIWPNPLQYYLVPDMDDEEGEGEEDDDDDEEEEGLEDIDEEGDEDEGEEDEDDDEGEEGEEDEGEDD
Aryl hydrocarbon receptor: Aryl hydrocarbon receptor (Danio rerio, UniProt Q9YGV3)
Sequence of UniProt Q16774 (whole entry, unmodified, looked up): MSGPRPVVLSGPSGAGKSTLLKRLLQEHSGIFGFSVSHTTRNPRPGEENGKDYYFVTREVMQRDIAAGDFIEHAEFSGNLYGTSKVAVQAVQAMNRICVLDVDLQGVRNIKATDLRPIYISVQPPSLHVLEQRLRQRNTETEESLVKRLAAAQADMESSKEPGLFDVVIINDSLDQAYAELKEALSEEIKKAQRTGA
Sequence of UniProt O76090 (whole entry, unmodified, looked up): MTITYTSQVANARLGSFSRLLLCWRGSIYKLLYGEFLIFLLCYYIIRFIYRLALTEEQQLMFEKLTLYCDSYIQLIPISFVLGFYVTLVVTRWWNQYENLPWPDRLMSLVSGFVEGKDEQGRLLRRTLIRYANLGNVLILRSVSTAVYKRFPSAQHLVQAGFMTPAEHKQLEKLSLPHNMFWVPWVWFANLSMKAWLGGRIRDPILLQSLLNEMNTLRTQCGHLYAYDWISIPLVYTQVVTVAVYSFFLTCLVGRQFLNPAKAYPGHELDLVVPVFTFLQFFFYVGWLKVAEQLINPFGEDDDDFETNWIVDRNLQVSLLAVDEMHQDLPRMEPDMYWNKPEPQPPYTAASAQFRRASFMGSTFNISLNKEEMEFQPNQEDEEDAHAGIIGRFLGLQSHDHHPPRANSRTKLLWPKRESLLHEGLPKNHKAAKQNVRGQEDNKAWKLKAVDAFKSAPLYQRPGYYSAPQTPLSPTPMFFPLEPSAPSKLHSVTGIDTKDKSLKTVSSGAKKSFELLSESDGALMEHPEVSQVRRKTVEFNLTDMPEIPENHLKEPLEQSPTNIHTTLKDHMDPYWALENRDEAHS
Sequence of UniProt P00519 (whole entry, unmodified, looked up): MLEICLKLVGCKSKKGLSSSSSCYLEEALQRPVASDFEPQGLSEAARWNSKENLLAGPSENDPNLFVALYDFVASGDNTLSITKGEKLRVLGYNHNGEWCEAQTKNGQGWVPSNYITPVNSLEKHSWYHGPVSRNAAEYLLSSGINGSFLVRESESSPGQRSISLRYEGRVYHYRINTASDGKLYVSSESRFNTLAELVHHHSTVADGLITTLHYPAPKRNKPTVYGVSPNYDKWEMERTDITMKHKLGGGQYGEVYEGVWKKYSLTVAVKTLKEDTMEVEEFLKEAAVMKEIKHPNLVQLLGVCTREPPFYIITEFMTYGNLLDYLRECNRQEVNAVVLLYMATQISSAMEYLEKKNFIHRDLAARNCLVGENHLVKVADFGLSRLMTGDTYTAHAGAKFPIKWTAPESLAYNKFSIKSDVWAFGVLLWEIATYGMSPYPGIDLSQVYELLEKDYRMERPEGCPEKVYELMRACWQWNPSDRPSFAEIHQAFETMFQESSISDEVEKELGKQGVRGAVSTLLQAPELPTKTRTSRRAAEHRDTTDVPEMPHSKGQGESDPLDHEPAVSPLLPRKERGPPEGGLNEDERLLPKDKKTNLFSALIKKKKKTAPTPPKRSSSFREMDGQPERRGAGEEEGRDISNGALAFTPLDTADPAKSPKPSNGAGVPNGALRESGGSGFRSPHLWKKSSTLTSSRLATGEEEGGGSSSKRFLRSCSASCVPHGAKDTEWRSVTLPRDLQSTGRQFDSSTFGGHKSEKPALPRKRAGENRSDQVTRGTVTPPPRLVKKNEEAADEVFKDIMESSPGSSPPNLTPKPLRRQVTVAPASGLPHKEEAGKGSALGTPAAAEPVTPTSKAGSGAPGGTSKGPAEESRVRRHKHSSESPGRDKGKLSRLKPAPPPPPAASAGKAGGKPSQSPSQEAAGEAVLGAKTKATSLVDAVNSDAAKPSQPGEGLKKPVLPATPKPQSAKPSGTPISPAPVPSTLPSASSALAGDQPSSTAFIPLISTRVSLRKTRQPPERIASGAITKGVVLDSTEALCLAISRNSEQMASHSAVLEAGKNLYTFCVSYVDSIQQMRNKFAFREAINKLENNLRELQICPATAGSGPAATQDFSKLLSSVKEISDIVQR
Sequence of UniProt P11388 (whole entry, looked up): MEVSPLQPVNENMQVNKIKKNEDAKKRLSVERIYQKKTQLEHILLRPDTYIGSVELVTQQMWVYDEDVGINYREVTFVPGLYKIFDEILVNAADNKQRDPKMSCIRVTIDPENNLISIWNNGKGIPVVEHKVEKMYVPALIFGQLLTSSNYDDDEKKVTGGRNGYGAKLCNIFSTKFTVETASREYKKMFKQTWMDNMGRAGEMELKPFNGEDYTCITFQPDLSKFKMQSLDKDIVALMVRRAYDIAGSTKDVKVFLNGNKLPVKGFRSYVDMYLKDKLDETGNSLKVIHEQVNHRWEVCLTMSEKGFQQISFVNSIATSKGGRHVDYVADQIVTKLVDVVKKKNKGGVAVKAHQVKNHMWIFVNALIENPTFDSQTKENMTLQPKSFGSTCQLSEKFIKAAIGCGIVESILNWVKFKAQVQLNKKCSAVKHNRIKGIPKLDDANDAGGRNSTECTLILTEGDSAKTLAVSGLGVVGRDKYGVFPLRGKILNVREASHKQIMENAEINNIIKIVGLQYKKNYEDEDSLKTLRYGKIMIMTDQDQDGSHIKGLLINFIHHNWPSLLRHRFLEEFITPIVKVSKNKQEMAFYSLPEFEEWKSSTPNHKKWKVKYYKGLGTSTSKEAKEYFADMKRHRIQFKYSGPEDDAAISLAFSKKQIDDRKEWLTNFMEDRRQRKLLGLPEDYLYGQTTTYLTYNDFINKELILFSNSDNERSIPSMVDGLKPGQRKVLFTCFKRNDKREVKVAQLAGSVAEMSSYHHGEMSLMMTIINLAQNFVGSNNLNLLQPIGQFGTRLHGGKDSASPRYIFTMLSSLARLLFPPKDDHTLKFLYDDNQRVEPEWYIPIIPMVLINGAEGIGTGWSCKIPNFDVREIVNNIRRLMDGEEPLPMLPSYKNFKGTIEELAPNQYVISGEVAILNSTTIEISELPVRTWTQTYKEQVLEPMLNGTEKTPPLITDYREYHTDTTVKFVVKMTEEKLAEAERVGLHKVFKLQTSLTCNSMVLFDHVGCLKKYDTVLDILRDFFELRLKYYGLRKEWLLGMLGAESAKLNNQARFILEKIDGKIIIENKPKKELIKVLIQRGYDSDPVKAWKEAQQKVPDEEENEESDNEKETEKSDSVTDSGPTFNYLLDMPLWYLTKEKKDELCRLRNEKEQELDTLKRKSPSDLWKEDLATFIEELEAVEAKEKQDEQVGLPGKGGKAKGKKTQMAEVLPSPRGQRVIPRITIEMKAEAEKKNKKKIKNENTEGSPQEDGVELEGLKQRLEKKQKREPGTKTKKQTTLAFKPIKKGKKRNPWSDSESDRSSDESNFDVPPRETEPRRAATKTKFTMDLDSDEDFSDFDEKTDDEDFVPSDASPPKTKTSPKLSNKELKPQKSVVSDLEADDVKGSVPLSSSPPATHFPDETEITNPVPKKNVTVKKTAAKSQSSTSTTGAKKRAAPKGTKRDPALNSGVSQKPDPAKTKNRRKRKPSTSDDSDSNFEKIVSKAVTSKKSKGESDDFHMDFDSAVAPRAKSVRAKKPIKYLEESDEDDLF
Sequence of UniProt P51575 (whole entry, unmodified, looked up): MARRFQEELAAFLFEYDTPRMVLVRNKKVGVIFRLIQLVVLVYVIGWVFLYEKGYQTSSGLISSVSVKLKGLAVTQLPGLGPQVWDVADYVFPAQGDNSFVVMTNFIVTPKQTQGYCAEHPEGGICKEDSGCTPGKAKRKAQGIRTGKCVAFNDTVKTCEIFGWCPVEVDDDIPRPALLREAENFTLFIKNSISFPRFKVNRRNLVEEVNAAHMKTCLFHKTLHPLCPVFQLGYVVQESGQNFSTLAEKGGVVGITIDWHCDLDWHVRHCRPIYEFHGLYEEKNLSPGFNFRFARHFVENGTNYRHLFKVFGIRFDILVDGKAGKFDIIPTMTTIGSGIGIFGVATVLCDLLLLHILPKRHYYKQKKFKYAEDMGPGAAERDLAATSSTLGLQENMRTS
Sequence of UniProt P02754 (whole entry, looked up): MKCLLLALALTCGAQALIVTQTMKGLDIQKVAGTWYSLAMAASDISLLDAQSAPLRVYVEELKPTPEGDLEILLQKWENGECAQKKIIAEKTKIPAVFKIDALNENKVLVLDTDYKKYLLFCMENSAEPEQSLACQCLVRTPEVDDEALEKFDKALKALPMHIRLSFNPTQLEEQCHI
Sequence of UniProt P32320 (whole entry, looked up): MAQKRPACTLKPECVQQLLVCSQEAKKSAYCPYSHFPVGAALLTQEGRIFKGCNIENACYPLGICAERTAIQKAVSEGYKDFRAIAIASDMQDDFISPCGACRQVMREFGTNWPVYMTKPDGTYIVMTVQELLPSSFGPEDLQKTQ
Sequence of UniProt P18508 (whole entry, looked up): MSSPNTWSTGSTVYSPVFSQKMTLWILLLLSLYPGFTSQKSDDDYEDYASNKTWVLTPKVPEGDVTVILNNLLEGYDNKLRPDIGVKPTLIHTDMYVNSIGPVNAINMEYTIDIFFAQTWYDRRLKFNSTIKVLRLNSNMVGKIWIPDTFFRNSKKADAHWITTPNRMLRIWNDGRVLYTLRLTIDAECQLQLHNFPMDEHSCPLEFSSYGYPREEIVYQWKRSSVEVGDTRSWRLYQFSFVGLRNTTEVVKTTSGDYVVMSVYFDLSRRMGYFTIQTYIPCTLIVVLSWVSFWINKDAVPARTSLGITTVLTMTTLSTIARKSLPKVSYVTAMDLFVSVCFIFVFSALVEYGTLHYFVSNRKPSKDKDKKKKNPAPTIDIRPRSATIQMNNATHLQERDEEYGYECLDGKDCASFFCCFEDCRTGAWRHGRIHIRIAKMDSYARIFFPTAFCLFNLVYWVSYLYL

CC[C@@H]1[C@H](F)C(=O)N[C@@H]1COc1nccc2cc(C(N)=O)c(OC)cc12  inhibition (Aurora kinase A (AURKA, Homo sapiens, UniProt O14965); ATP probe binding, KiNativ profiling, item: Lys2 probe site; THP-1 cell lysate; 0.2 mM): 2.8%
O=C(CCCc1ccccc1)C(=O)NCCc1ccc(Oc2ccc(C(F)(F)F)cn2)cc1  probe-enriched protein abundance (Carboxylesterase 1D (Mus musculus, UniProt Q8VCT4); inhibitor, item: CES1D; mouse, BAT cytosol proteome; 10 µM; relative to: DMSO, lower = stronger inhibition): 102000 a.u.
Nc1nc(=O)n([C@H]2C[C@H](O)[C@@H](CO)O2)cc1-c1ccco1  kcat (Cytidine deaminase (CDA, Homo sapiens, UniProt P32320); deamination, substrate, real-time fluorescence; pH 7.4, 37 °C): 2.5 to 3.3 s⁻¹
CCCCCCCCCCCCC/C=C/[C@@H](O)[C@H](CO)NC(=O)CCCCCCCCCCCCCCCCC  bound endogenous lipid (SET K222D; lipid binding, GFP pull-down LC-MS/MS; A549 overexpressing GFP-tagged protein; unit not given; relative to: vector-transfected cells): 3.5
Cc1ccc(-c2ccnc(Nc3ccc(C(=O)N4CCC(N5CCCC5)CC4)cc3)n2)s1  ligand efficiency (Protein kinase 6 (Plasmodium falciparum, UniProt Q8IDW1); binding, KinaseSeeker split luciferase): 0.29
CCCCCCCCCCCCC/C=C/[C@@H](O)[C@H](CO)NC(=O)CCCCCCCCCCCCCCCCCCCCC  lipid fraction bound (SET K222D; lipid binding, GFP pull-down LC-MS/MS; A549 overexpressing GFP-tagged protein; relative to: eluate plus flow-through): 2.8%
CN(CCCCCCNC(=O)COc1ccc(C2CCC(=O)NC2=O)cc1)Cc1cn(Cc2ccc(C(=O)NO)cc2)c2ccccc12.O=C(O)C(F)(F)F (stereo not drawn)  degradation (HDAC6 (Homo sapiens, UniProt Q9UBN7); degrader, western blot; MM1.S; 5 µM, 24 h): 95%
CCN1CCC[C@H]1CNC(=O)c1c(O)c(Cl)cc(Cl)c1OC  log2 fold change (Trace amine-associated receptor 6 (TAAR6, Homo sapiens, UniProt Q96RI8); β-arrestin recruitment, TANGO luminescence, item: TAAR6; concentration not given; relative to: basal luminescence): -0.084
O=C(O)CC[C@H](NC(=O)N[C@@H](CCCCNC(=O)[C@H](Cc1ccc2ccccc2c1)NC(=O)CCCCCNC(=O)CN1CCN(CC(=O)O)CCN(CC(=O)O)CCN(CC(=O)O)CC1)C(=O)O)C(=O)O [gallium-68 labelled]  tissue uptake (gamma counting; mouse, 22Rv1 xenograft, spleen; intravenous, 3.7 MBq, 2 h): 3.23 ± 1.19 %ID/g
CC(=O)N[C@H](C(=O)N1C[C@H](O)C[C@H]1C(=O)NCc1ccc(-c2scnc2C)cc1)C(C)(C)SCCCCCCNC(=O)C[C@@H]1N=C(c2ccc(Cl)cc2)c2c(sc(C)c2C)-n2c(C)nnc21  ΔH (BRD2/VHL, BD2; with VCB (Homo sapiens, UniProt P25440+P40337); ternary complex binding, ITC; 25 °C, together with: VHL-ElonginB-ElonginC titrated into compound:PROTAC:Brd2^BD2 complex): -7.2 ± 0.6 kcal/mol
Cc1ncsc1-c1ccc(CNC(=O)[C@@H]2C[C@@H](O)CN2C(=O)[C@@H](NC(=O)C2(F)CC2)C(C)(C)C)c(OCCOCCOCCN2CCN(c3cc(-c4ccccc4O)nnc3N)CC2)c1  cooperativity factor (VHL-ElonginB-ElonginC complex human; ternary complex formation, fluorescence polarization; together with: SMARCA2 bromodomain): 4.4
Nc1nc2c(ncn2[C@@H]2O[C@H](COP(=O)(O)O)[C@@H](O)[C@H]2O)c(=O)[nH]1  reaction rate (GUK1 (Homo sapiens, UniProt Q16774, S37P); enzyme activity, NADH-coupled; 250 µM): 1.64 s⁻¹ and 0.884 s⁻¹ and 1.22 s⁻¹
CC(=O)N[C@H]1C(OCCOP(=O)(O)OC[C@H]2O[C@@H](n3ccc(=O)[nH]c3=O)[C@H](O)[C@@H]2O)O[C@H](CO)[C@@H](O)[C@@H]1O (stereo partly drawn)  relative activity (Alpha-1,6-mannosyl-glycoprotein 2-beta-N-acetylglucosaminyltransferase (Mus musculus, UniProt Q921V5); enzyme activity, HPLC; 2500 µM, together with: UDP-GlcNAc 0.5 mM; relative to: no compound): 0.877
O=C1C[C@@H](c2ccccc2)Oc2cc(O)cc(O)c21  fold change (Aryl hydrocarbon receptor; reporter gene, agonist, luciferase reporter; ZF-4; 41.15 µM; relative to: vehicle control): 1.38
COc1cc(Nc2ncc3c(n2)-c2ccc(Cl)cc2C(c2c(F)cccc2OC)=NC3)ccc1C(=O)O  remaining activity (MYLK2; kinase activity; 1 µM): 98%
Nc1ncnc2c1ncn2[C@@H]1O[C@H](COP(=O)(O)OP(=O)(O)O)[C@@H](O)[C@H]1O  -TΔS (GUK1 (Homo sapiens, UniProt Q16774, R137A); binding, ITC; together with: GMP): 1.97 kcal/mol
Cc1cc2ccccc2c2ccccc12  maximum response (AHR (Homo sapiens, UniProt P35869); reporter gene, agonist, yeast LacZ reporter; Saccharomyces cerevisiae): 126 LacZ units
O=C(O)CCc1cnccn1  Kd (Protein deacetylase HDAC6, ZnF-UBD domain (HDAC6, Homo sapiens, UniProt Q9UBN7)): > 1000 µM
C[C@H](CCC(C)(C)O)[C@H]1CC[C@H]2[C@@H]3CC=C4C[C@@](C)(O)CC[C@]4(C)[C@H]3CC[C@]12C  current response (Glutamate NMDA receptor; GRIN1/GRIN2B (GRIN1/GRIN2B, Homo sapiens, UniProt Q05586+Q13224, N650A); positive allosteric modulator, two-electrode voltage clamp; Xenopus oocytes expressing GluN1-N650A; 10 µM, 0.02% cremophor, together with: 100 µM glutamate and glycine; relative to: without compound): 271 ± 16%
Nc1ncnc2c1ncn2[C@@H]1O[C@H](COP(=O)(O)CP(=O)(O)OP(=O)(O)O)[C@@H](O)[C@H]1O  specific binding (P2X purinoceptor 1 (P2RX1, Homo sapiens, UniProt P51575, D170A); saturation binding; 103 nM): 348 corrected cpm and 408 corrected cpm
N#Cc1ccc(C[C@@H](Nc2c(Nc3ccc(Br)cc3)c(=O)c2=O)C(=O)N2CCc3ccccc32)cc1  activity (FPR2 (Homo sapiens, UniProt P25090); cell-based; concentration not given): inactive
O=S(=O)(O)C1CCNCC1  maximal response (GABA-A receptor; alpha-1/beta-2/gamma-2 (Rattus norvegicus, UniProt P18508+P62813+P63138); membrane potential, agonist, QP-DHM fluorescence; HEK293 expressing GABAA; relative to: GABA): 94%
CC1CCCN1c1nccc(-c2cnn3ncccc23)n1 (stereo not drawn)  remaining binding (ABL1 (Homo sapiens, UniProt P00519, F317L); KINOMEscan; 1 µM): 100%
O=c1nc(SCc2cc(F)cc(C(F)(F)F)c2)nc(SCc2ccc3nc(Cl)ccc3c2)[nH]1  ATP hydrolysis rate (TOP2A (Homo sapiens, UniProt P11388); ATPase activity; 7.8 µM, together with: ATP 0.05 mM): 0.104 µM/min and 0.436 µM/min
Nc1ccc(C(=O)O)cc1  current density (BEST1, with wild-type BEST1 (Homo sapiens, UniProt O76090, A243T); whole-cell patch clamp; HEK293 co-expressing WT and A243T mutant; concentration not given, membrane potential 20 mV): 5.51 pA/pF and 4.39 pA/pF and 6.8 pA/pF and 5.21 pA/pF and 2.32 pA/pF and 5.73 pA/pF and 1.76 pA/pF
c1coc(-c2n[nH]cc2-c2ccnc3ccccc23)c1  log2 fold change (Serine/threonine-protein kinase STE7 homolog (HST7, Candida albicans, UniProt Q5A6T5); kinase binding, MIB/MS competition; Candida albicans lysate; 1 µM; relative to: DMSO, negative = stronger binding): 0.08
c1ccc2c(c1)-c1cccc3c1c-2cc1ccccc13  fold change (Aryl hydrocarbon receptor; reporter gene, agonist, luciferase reporter; ZF-4; 3333.33 µM; relative to: vehicle control): 8.34
CN(C)c1nccc(-c2cnn3ncccc23)n1  remaining binding (ABL1 (Homo sapiens, UniProt P00519, H396P); KINOMEscan; 1 µM; relative to: control): 100%
O=C(O)c1ccc(Nc2ncc3c(n2)-c2ccc(Cl)cc2C(c2c(F)cccc2F)=NC3)cc1  remaining activity (MST1(h); kinase activity; 1 µM): 107%
Cn1cc(-c2ccc(-c3cncc(Cl)c3N3CCC4(CCNC4=O)CC3)cc2)cn1  log2 fold change (COLO 205; gene expression, microarray, item: TLE2 mRNA; concentration not given, 6 h; relative to: untreated cells): 2.06
CC(C)=CCC/C(C)=C/C=C/C(C)=C/C=C/C(C)=C/C=C/C=C(C)/C=C/C=C(C)/C=C/C=C(\C)CCC=C(C)C  quenching rate constant (Beta-lactoglobulin (LGB, Bos taurus, UniProt P02754); intrinsic fluorescence; 303 K): 5.4e+11 ± 1.58e+11 M⁻¹ s⁻¹
c1cnn2ncc(-c3ccnc(N4CCC45COC5)n3)c2c1  remaining binding (ABL1 (Homo sapiens, UniProt P00519, F317I); KINOMEscan; 1 µM; relative to: control): 52% and 81%
CCCCCCCCCCCCC/C=C/[C@@H](O)[C@H](CO)NC(=O)CCCCCCCCCCCCCCCCCCC  bound endogenous lipid (Protein SET (SET, Homo sapiens, UniProt Q01105, Y135C); lipid binding, GFP pull-down LC-MS/MS; A549 overexpressing GFP-tagged protein; unit not given; relative to: vector-transfected cells): 30.3
CC(=O)OCc1nn(C)c2nc(N)[nH]c(=O)c2c1=O  melting temperature (folP (Bacteria, UniProt P0AC13); CETSA HiBiT; Escherichia coli, whole cells): 62.9 °C
COc1ccc(C(=O)C#Cc2ccc(F)c(F)c2)cc1  remaining activity (rhlR (Pseudomonas aeruginosa, UniProt P54292); reporter gene, inhibitor, quorum sensing reporter strain; 10 µM, 1.5 h; relative to: DMSO): 77%
Cc1cccc(N2CC(C(=O)O)CC2=O)c1 (stereo not drawn)  fold enrichment (Huntingtin (HTT, Homo sapiens, UniProt P42858); binding, affinity selection mass spectrometry; relative to: other proteins in batch): 0.674
Cc1cc2ccccc2c2ccc3ccccc3c12  fold change (Aryl hydrocarbon receptor; reporter gene, agonist, luciferase reporter; ZF-4; 41.15 µM; relative to: vehicle control): 3.88
O=C(O)Cc1cccnc1  Kd (Ubiquitin carboxyl-terminal hydrolase 13, ZnF-UBD domain (USP13, Homo sapiens, UniProt Q92995)): > 1000 µM
Cn1c2c(c3ccccc31)C(C#N)C(C)(C)NC2=O (stereo not drawn)  delta Tm (Serine/threonine-protein kinase VRK3 (VRK3, Homo sapiens, UniProt Q8IV63); thermal stability, thermal shift; 10 µM; higher = stronger binding): 0 °C
